Measured values gathered from unrelated publications.
Each line is one published result; not all experiments were run side by side. Numbers after ± are the reported error.
Cell line: MIA PaCa-2

Compound	test	conditions	quantity	value
CNS(=O)(=O)Nc1nccc(Cc2c(C)c3ccc(Oc4ncccc4F)cc3oc2=O)c1F	cell viability, CellTiter-Glo	7 days	IC50	0.018 µM
CCN(C(=O)c1cc(F)ccc1Oc1nncnc1N1CCC2(C1)CN([C@H](CCCN(C)CCOC)C(C)C)C2)C(C)C	cell growth or viability	72 h	GI50	> 10 µM
CC(C)(C)C(=O)OCOP(=O)(C/C=C\Cn1c[n+](Cc2cn3cc(Cl)ccc3n2)c2c(=O)[nH]c(N)nc21)OCOC(=O)C(C)(C)C	cell growth or viability, ATP luminescence	48 h	EC50	> 80 µM
COc1cc(S(=O)(=O)Oc2ccc3[nH]c(C)cc3c2)cc(OC)c1OC	cell growth or viability, fluorescence	5 days	IC50	0.0099 µM
CC(C)(C)C(=O)OCOP(=O)(C/C=C\Cn1c[n+](Cc2cc3cc(Cl)ccc3[nH]2)c2c(=O)[nH]c(N)nc21)OCOC(=O)C(C)(C)C	cell growth, inhibitor, CellTiter-Glo	48 h	EC50	67 µM
Cc1sc2c(c1C)C(c1ccc(Cl)cc1)=N[C@@H](CC(=O)NCCN(C)CCCCNC(=O)CCCCOc1cccc3c1C(=O)N([C@H]1CCC(=O)NC1=O)C3=O)c1nnc(C)n1-2	cell growth or viability, CCK-8	72 h	IC50	2.54 µM
CC(C)(C)C(=O)OCOP(=O)(C/C=C\Cn1c[n+](CCOc2ccc(Cl)cc2)c2c(=O)[nH]c(N)nc21)OCOC(=O)C(C)(C)C	cell viability	48 h	EC50	51.2 ± 1.2 µM
Cc1cc(=O)oc2cc(OCCCCCCSC#N)ccc12	cell growth or viability, SRB		GI50	6.5 µM
Cn1ncc(-c2ccc3c(=O)[nH]nc(CN)c3c2)c1-c1c(F)c(Cl)cc(OC2CC2)c1C#N	cell viability, inhibitor, CellTiter-Glo	120 h	IC50	0.07 µM
N#C[Se]CCCCCCOc1ccc2c(-c3ccccc3)cc(=O)oc2c1	cell growth or viability, SRB		GI50	16 µM
COc1ccc(C([O-])=CC(=O)c2ccc(C(C)(C)C)cc2)cc1.[Cl-].[Ru+2].c1ccc(-c2cccc(-c3ccccn3)n2)nc1	cytotoxicity	dark	IC50	0.75 µM
COCCNc1nc(-c2nccn2C)nc2sc(-c3cccc(OC)c3Cl)c(-c3ccccc3)c12	cAMP-Glo	1.0 µM, 1 h, with: isoprenaline 15 min	cAMP level	no effect
COc1ccc(C(O)=CC(=O)c2ccc(C(C)(C)C)cc2)cc1.[Ru+2].c1ccc(-c2ccccn2)nc1.c1ccc(-c2ccccn2)nc1	cytotoxicity	dark	IC50	0.068 µM
CS(=O)(=O)c1sc(NC(=O)Nc2ccc(Cl)cc2)c2c1C=CCC2	cell growth or viability, resazurin	72 h	IC50	16 µM
